Measured values collected from several papers.
Values joined by “and” are separate records of one study, mostly repeats; a detail may differ. Numbers after ± are the reported error. Values after ≈ are worked out from the molar mass of the structure shown.
Sequence of UniProt P29317 (whole entry, looked up): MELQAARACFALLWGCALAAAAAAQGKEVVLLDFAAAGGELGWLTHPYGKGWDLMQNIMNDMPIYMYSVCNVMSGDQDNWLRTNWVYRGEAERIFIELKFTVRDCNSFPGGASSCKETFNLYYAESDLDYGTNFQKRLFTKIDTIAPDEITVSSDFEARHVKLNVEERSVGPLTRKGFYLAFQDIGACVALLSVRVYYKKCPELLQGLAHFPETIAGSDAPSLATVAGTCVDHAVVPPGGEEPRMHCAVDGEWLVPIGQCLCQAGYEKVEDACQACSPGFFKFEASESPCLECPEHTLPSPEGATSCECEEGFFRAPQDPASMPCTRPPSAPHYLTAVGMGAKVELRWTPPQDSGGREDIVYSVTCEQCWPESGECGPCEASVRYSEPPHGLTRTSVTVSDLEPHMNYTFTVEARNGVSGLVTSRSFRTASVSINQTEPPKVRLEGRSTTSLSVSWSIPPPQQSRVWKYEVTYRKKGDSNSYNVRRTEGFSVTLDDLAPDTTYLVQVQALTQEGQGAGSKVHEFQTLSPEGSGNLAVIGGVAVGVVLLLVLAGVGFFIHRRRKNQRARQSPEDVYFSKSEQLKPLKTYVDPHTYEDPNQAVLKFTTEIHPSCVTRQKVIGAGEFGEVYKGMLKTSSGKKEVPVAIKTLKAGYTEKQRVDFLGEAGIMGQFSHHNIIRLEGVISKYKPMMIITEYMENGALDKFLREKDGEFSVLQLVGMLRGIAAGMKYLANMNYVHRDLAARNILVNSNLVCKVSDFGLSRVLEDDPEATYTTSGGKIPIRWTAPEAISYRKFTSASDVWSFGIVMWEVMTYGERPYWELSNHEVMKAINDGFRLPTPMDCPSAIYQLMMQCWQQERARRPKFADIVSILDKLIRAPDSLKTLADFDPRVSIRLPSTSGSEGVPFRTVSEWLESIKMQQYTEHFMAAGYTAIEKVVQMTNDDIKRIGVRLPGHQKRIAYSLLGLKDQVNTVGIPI
Sequence of UniProt Q9UMR5 (whole entry, looked up): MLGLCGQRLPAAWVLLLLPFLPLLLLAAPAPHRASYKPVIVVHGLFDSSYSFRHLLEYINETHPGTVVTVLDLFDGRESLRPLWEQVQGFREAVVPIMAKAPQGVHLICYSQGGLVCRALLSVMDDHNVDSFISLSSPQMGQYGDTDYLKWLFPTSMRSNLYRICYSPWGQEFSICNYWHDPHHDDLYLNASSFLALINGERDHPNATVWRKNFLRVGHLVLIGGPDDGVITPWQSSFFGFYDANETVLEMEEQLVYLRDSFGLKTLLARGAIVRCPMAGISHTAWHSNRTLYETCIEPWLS
Sequence of UniProt Q5T601 (whole entry, looked up): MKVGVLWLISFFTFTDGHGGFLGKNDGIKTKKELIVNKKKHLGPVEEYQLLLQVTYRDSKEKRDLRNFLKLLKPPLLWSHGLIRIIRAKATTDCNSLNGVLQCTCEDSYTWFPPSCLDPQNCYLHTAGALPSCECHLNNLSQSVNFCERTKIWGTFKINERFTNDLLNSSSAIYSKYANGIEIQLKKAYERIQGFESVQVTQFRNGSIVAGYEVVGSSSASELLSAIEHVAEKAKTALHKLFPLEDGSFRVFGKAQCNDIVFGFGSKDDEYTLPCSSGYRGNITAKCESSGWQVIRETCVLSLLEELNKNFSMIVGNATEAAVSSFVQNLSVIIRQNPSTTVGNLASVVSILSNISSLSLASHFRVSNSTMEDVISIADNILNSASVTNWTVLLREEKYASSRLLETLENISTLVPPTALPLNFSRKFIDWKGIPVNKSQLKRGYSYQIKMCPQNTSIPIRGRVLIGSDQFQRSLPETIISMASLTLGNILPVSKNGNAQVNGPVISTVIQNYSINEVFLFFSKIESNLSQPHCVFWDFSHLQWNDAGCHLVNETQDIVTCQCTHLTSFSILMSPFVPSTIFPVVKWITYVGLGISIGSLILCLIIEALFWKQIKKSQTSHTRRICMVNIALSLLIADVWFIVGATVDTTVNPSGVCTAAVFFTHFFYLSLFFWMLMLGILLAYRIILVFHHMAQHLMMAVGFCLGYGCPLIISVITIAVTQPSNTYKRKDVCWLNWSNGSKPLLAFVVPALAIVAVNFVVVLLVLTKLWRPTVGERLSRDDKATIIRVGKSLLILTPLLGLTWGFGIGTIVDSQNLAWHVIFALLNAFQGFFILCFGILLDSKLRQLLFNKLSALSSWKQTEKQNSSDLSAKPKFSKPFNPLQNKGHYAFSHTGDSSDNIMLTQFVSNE

SMILES | target or system | assay | test system | setting | how to read | measurement | value
CC[C@H](C)[C@H](NC(=O)[C@H](Cc1ccccc1)NC(=O)[C@H](CCC(=O)O)NC(=O)[C@H](CCCNC(=N)N)NC(=O)[C@H](C)NC(=O)[C@H](C)NC(=O)[C@H](CCC(N)=O)NC(=O)[C@H](CCC(=O)O)NC(=O)[C@H](CCC(=O)O)NC(=O)[C@H](CC(C)C)NC(=O)[C@H](Cc1ccc(O)cc1)NC(=O)[C@H](CO)NC(=O)[C@H](CO)NC(=O)[C@@H](NC(=O)[C@H](CC(=O)O)NC(=O)[C@H](CO)NC(=O)[C@@H](NC(=O)[C@H](Cc1ccccc1)NC(=O)[C@@H](NC(=O)CNC(=O)[C@H](CCC(=O)O)NC(=O)[C@H](C)NC(=O)CCc1c[nH]cn1)[C@@H](C)O)[C@@H](C)O)C(C)C)C(=O)N[C@@H](C)C(=O)N[C@@H](Cc1c[nH]c2ccccc12)C(=O)N[C@@H](CC(C)C)C(=O)N[C@H](C(=O)N[C@@H](CCCNC(=N)N)C(=O)NCC(=O)N[C@@H](CCCNC(=N)N)C(=O)N[C@@H](CCCCNC(=O)COCCOCCNC(=O)COCCOCCNC(=O)CC[C@H](NC(=O)CCCCCCCCCCCCCCCCC(=O)O)C(=O)O)C(=O)NCC(=O)NCC(=O)N[C@@H](CO)C(=O)N[C@@H](CCCCNc1c(NCCCCCN(O)C(=O)CCC(=O)NCCCCCN(O)C(=O)CCC(=O)NCCCCCN(O)C(C)=O)c(=O)c1=O)C(=O)O)C(C)C [zirconium-89 labelled] |  | gamma counting | rat, stomach-duodenum | intravenous, 3 nmol/kg, 24 h |  | tissue uptake | 0.47 %ID/g
Nc1c(C(=O)N2CCOCC2)sc2nc(-c3ccccc3)ccc12 | Mycobacterium tuberculosis | growth inhibition | H37Rv LepB under-expressing |  |  | IC50 | 14 ± 3 µM
Cc1ccc(OCCc2cc(F)cc(F)c2)c(C(N)=O)c1 | Mycobacterium tuberculosis |  | H37Rv-LP |  | reference: HepG2 CC50 over Mtb IC90 | selectivity index | 30
COc1cc(Nc2ncc(F)c(Nc3ccc4c(n3)NC(=O)C(C)(C)O4)n2)cc(OC)c1OC | Carbonic anhydrase 2 (CA2, Homo sapiens, UniProt P00918) |  |  |  |  | IC50 | > 10 µM
CC(C)C(=O)OCc1cc2[nH]c(=S)n(Cc3cncc(C#N)c3)c(=O)c2cc1Cl | Mycobacterium tuberculosis |  | PptT conditional knockdown |  |  | MIC90 | 0.855 µM (≈ 0.367 µg/mL)
CC[C@H](C)[C@@H]1NC(=O)[C@@H]2CCCN2C(=O)[C@H](CC(C)C)NC(=O)[C@H](CC(C)C)NC(=O)CNC(=O)[C@@H](NC(=O)[C@@H](NC(=O)[C@H](CC(=O)O)NC(=O)CNC(=O)[C@@H](NC(=O)[C@H](C)NC(=O)CNC(=O)[C@H](CCCCN)NC(=O)[C@H](CC(C)C)NC(=O)[C@H](CC(C)C)NC(=O)[C@H](CCCCN)NC(=O)CNC(=O)[C@@H](NC(=O)[C@@H](N)CC(C)C)C(C)C)C(C)C)C(C)C)CSSC[C@@H](C(=O)O)NC1=O |  | RNA-seq, item: Ltb mRNA | mouse traumatic brain injury, frontal cortex and hippocampus | dose not given | reference: TBI plus compound vs TBI | log2 fold change | -2.55
COc1ccc(-c2cc(C(F)(F)F)c3c(N)c(C(=O)Nc4ccc(C)cc4C)sc3n2)cc1 | Mycobacterium tuberculosis |  | H37Rv wild type | 120 h |  | IC90 | inactive
O=C(OCc1ccccc1)OCc1cc2[nH]c(=S)n(Cc3cccnc3)c(=O)c2cc1Cl | Mycobacterium tuberculosis |  | PptT conditional knockdown |  |  | MIC90 | 1.94 µM (≈ 0.908 µg/mL)
O=C(c1ccc(Cl)cc1)N1CCN2C(=O)N(OC(=O)N3CCOc4ccccc43)C(=O)C2C1 (stereo not shown) | PPT2 (Homo sapiens, UniProt Q9UMR5) | MS-based ABPP | SW-620 conditioned medium | 10 µM, 1 h, 37 °C | reference: compound over DMSO, lower = more inhibition | median protein ratio | 0.4
Cc1cscc1-c1ccc(OCCc2cc(F)cc(F)c2)c(C(N)=O)c1 | Mycobacterium tuberculosis |  | H37Rv-LP |  | reference: HepG2 CC50 over Mtb IC90 | selectivity index | 18
CN(C)C(=O)OCc1cc2[nH]c(=S)n(Cc3cncnc3)c(=O)c2cc1Cl | Mycobacterium tuberculosis |  | PptT conditional knockdown |  |  | MIC90 | 6.16 µM (≈ 2.5 µg/mL)
C[C@H]1COc2c(N3CCN(C)CC3)c(F)cc3c(=O)c(C(=O)O)cn1c23 | Burkholderia cepacia |  | 6349 |  |  | MIC | 1 µg/mL (≈ 2.77 µM)
NC(=O)c1cc(F)ccc1OCCc1cccc(F)c1 | Mycobacterium tuberculosis |  | H37Rv-LP |  | reference: HepG2 CC50 over Mtb IC90 | selectivity index | > 1.5
COC(=O)OCc1cc2[nH]c(=S)n(Cc3cccnc3)c(=O)c2cc1Cl | Mycobacterium tuberculosis |  | PptT conditional knockdown |  |  | MIC90 | 0.33 µM (≈ 0.129 µg/mL)
COc1ccc(-c2cc(C(F)(F)F)c3c(N)c(C(=O)N4CC(C)OC(C)C4)sc3n2)cc1 (stereo not shown) | Mycobacterium tuberculosis |  | H37Rv wild type | 120 h |  | IC90 | inactive
O=C(O)C[C@H](NC(=O)[C@H](CC(=O)O)NC(=O)[C@H](CC(=O)O)NC(=O)[C@H](CC(=O)O)NC(=O)[C@H](CC(=O)O)NC(=O)[C@H](CC(=O)O)NC(=O)[C@H](CC(=O)O)NC(=O)[C@H](CC(=O)O)NC(=O)[C@H](CC(=O)O)NC(=O)[C@H](CC(=O)O)NC(=O)[C@H](CC(=O)O)NC(=O)[C@H](CCCCNC(=O)c1ccc(C(=O)NCCOCCOB2BBBBBB3BBBB3B2)cc1)NC(=O)CN1CCN(CC(=O)O)CCN(CC(=O)O)CCN(CC(=O)O)CC1)C(=O)O [gallium-67 labelled] |  |  | ddY male mice, muscle | intravenous, 37 kBq, 3 h |  | tissue uptake | 0.43 %ID/g
NC(=O)c1cc(C2CC2)ccc1OCCc1cccc(F)c1 | Mycobacterium tuberculosis |  | H37Rv-LP |  | reference: HepG2 CC50 over Mtb IC90 | selectivity index | 44
CC(C)C[C@H](NC(=O)C[C@H](O)[C@H](CC(C)C)NC(=O)[C@H](Cc1c[nH]cn1)NC(=O)CNC(=O)[C@@H](NC(=O)[C@H](C)NC(=O)[C@H](Cc1c[nH]c2ccccc12)NC(=O)[C@H](CCC(N)=O)NC(=O)[C@@H](Cc1ccccc1)NC(=O)CCNC(=O)CCSc1nnc(NCCC(=O)NCCC(=O)NCCCC[C@H](NC(=O)N[C@@H](CCC(=O)O)C(=O)O)C(=O)O)c2c1CCC1C(CC2)C1COC(=O)NCCNC(=O)CC[C@H](C(=O)O)N1CCN(CC(=O)O)CCN(CC(=O)O)CC1)C(C)C)C(N)=O (stereo partly shown) [gallium-68 labelled] |  |  | athymic NMRI nude mice, 22Rv1 xenograft, tumour | intravenous, 2 h, added: PMPA 552 nmol co-injected |  | tissue uptake | 0.37 %ID/g
COc1ccc(-c2cc(C(F)(F)F)c3c(N)c(C(=O)N4CC(F)(F)C4)sc3n2)cc1 | Mycobacterium tuberculosis |  | H37Rv wild type | 120 h |  | IC90 | inactive

SMILES | target or system | assay | test system | setting | how to read | measurement | value
C[C@H]1CN(c2n[nH]c3nc(N[C@H]4CC[C@H](NS(=O)(=O)CCC(F)(F)F)CC4)ncc23)CCO1 | Tyrosine-protein kinase SYK (SYK, Homo sapiens, UniProt P43405) | inhibitor, Kinobeads competition profiling |  | 0.8 µM | reference: vehicle | relative abundance | 1.08
Nc1c(C(=O)NCc2ccccc2)sc2ncccc12 | Mycobacterium tuberculosis | growth inhibition | H37Rv LepB under-expressing |  |  | IC50 | > 100 µM
CC[C@H](C)[C@H](NC(=O)[C@H](Cc1ccccc1)NC(=O)[C@H](CCC(=O)O)NC(=O)[C@H](CCCNC(=N)N)NC(=O)[C@H](C)NC(=O)[C@H](C)NC(=O)[C@H](CCC(N)=O)NC(=O)[C@H](CCC(=O)O)NC(=O)[C@H](CCC(=O)O)NC(=O)[C@H](CC(C)C)NC(=O)[C@H](Cc1ccc(O)cc1)NC(=O)[C@H](CO)NC(=O)[C@H](CO)NC(=O)[C@H](CCCCNc1c(NCCCCCN(O)C(=O)CCC(=O)NCCCCCN(O)C(=O)CCC(=O)NCCCCCN(O)C(C)=O)c(=O)c1=O)NC(=O)[C@H](CC(=O)O)NC(=O)[C@H](CO)NC(=O)[C@@H](NC(=O)[C@H](Cc1ccccc1)NC(=O)[C@@H](NC(=O)CNC(=O)[C@H](CCC(=O)O)NC(=O)[C@H](C)NC(=O)CCc1cnc[nH]1)[C@@H](C)O)[C@@H](C)O)C(=O)N[C@@H](C)C(=O)N[C@@H](Cc1c[nH]c2ccccc12)C(=O)N[C@@H](CC(C)C)C(=O)N[C@H](C(=O)N[C@@H](CCCCNc1c(NCCCCCN(O)C(=O)CCC(=O)NCCCCCN(O)C(=O)CCC(=O)NCCCCCN(O)C(C)=O)c(=O)c1=O)C(=O)NCC(=O)N[C@@H](CCCNC(=N)N)C(=O)N[C@@H](CCCCNC(=O)COCCOCCNC(=O)COCCOCCNC(=O)CC[C@H](NC(=O)CCCCCCCCCCCCCCCCC(=O)O)C(=O)O)C(=O)O)C(C)C | Glucagon-like peptide 1 receptor (GLP1R, Homo sapiens, UniProt P43220) | cAMP reporter gene, agonist, CRE luciferase | BHK | with Zr, 0% HSA |  | EC50 | 0.13 nM
COc1ccc(-c2cc(C(F)(F)F)c3c(N)c(C(=O)NCCc4ccccc4)sc3n2)cc1 | Mycobacterium tuberculosis |  | H37Rv wild type |  | reference: HepG2 IC50 over M. tuberculosis IC90 | selectivity index | < 1
COC(=O)OCc1cc2[nH]c(=S)n(Cc3cncnc3)c(=O)c2cc1Cl | Mycobacterium tuberculosis |  | PptT conditional knockdown |  |  | MIC90 | 0.27 µM (≈ 0.106 µg/mL)
COc1ccc(N2C(=O)N(c3c(C)cccc3Cl)Cc3cnc(Nc4ccc(C5CCN(C)CC5)cc4OC)nc32)nc1 | Ephrin type-A receptor 2 (EPHA2, Homo sapiens, UniProt P29317) | kinase activity |  | 0.5 µM |  | inhibition | 91%
O=c1c2cc(Cl)c(CF)cc2[nH]c(=S)n1Cc1cccnc1 | Mycobacterium tuberculosis |  | PptT conditional knockdown |  |  | MIC90 | 1.75 µM (≈ 0.588 µg/mL)
COc1ccc(-c2cc(C(F)(F)F)c3c(N)c(C(=O)Nc4cc(C)ccc4C)sc3n2)cc1 | Mycobacterium tuberculosis | growth inhibition | H37Rv LepB under-expressing |  |  | IC50 | > 100 µM
NC(=O)c1cncc(Cn2c(=S)[nH]c3cc(CO)c(Cl)cc3c2=O)c1 | Mycobacterium tuberculosis |  | PptT conditional knockdown |  |  | MIC90 | 3.14 µM (≈ 1.18 µg/mL)
C[C@@H](O)[C@@H](CO)NC(=O)[C@@H](CCCNC(=N)N)NC(=O)[C@@H]1CCCN1C(=O)[C@@H]1CSSC[C@H](NC(=O)[C@H](Cc2ccccc2)NC(=O)CN2CCN(CC(=O)O)CCN(CC(=O)O)CCN(CC(=O)O)CC2)C(=O)N[C@@H](Cc2ccc(O)cc2)C(=O)N[C@@H](Cc2ccccc2)C(=O)N[C@@H](CCC(N)=O)C(=O)N[C@@H](CC(N)=O)C(=O)N1 [gallium-68 labelled] |  |  | Wistar rat, spleen | intravenous, 8 MBq, 30 min, group mean |  | tissue uptake | 0.31 %ID/g
C=C(C)c1ccc(OCCc2cccc(F)c2)c(C(N)=O)c1 | Mycobacterium tuberculosis |  | H37Rv-LP |  | reference: HepG2 CC50 over Mtb IC90 | selectivity index | 71
OC(Cn1cncn1)(Cn1cncn1)c1ccc(F)cc1F | Saccharomyces cerevisiae | cell growth | Pdr5 deleted, empty vector | 2^-1.322 µg/mL |  | OD600 | 0.101 and 0.094 and 0.087
Cc1ccc(OCCc2ccc(C3CC3)cc2)c(C(N)=O)c1 | Mycobacterium tuberculosis |  | H37Rv-LP |  | reference: HepG2 CC50 over Mtb IC90 | selectivity index | 85
Oc1ccc2c3c1O[C@H]1[C@@H](O)CC[C@@]4(O)[C@@H](C2)N(CC2CCC2)CC[C@]314 | ADGRF1 (Homo sapiens, UniProt Q5T601) | β-arrestin recruitment, TANGO luminescence, item: GPR110 |  | concentration not given | reference: basal luminescence | log2 fold change | 0.307
Cc1ccc(OCCc2cc(F)cc(F)c2)c(C(=O)NC(C)C)c1 | Mycobacterium tuberculosis | growth | H37Rv-LP | 120 h |  | IC90 | 19 ± 12 µM
COc1c(CCC[P+](c2ccccc2)(c2ccccc2)c2ccccc2)cc2c(c1OC)OCO2.[I-] | MOLT-4 | SRB |  |  |  | LC50 | > -4 log M
CN1CCCC(Cn2c(=S)[nH]c3ccc(Cl)cc3c2=O)C1 (stereo not shown) | Mycobacterium tuberculosis |  | PptT conditional knockdown |  |  | MIC90 | > 100 µM
COc1ccc(-c2ccc(OCCc3cccc(F)c3)c(C(N)=O)c2)cc1 | Mycobacterium tuberculosis | growth | H37Rv-LP | 120 h |  | IC90 | > 100 µM

Some of these lines once more:
SMILES | target or system | assay | test system | setting | how to read | measurement | value
COc1ccc(-c2ccc(OCCc3cccc(F)c3)c(C(N)=O)c2)cc1 | Mycobacterium tuberculosis | growth | H37Rv-LP | 120 h |  | IC90 | > 100 µM
COc1ccc(-c2cc(C(F)(F)F)c3c(N)c(C(=O)NCCc4ccccc4)sc3n2)cc1 | Mycobacterium tuberculosis |  | H37Rv wild type |  | reference: HepG2 IC50 over M. tuberculosis IC90 | selectivity index | < 1
Cc1ccc(OCCc2cc(F)cc(F)c2)c(C(N)=O)c1 | Mycobacterium tuberculosis |  | H37Rv-LP |  | reference: HepG2 CC50 over Mtb IC90 | selectivity index | 30
COc1ccc(-c2cc(C(F)(F)F)c3c(N)c(C(=O)Nc4cc(C)ccc4C)sc3n2)cc1 | Mycobacterium tuberculosis | growth inhibition | H37Rv LepB under-expressing |  |  | IC50 | > 100 µM
C=C(C)c1ccc(OCCc2cccc(F)c2)c(C(N)=O)c1 | Mycobacterium tuberculosis |  | H37Rv-LP |  | reference: HepG2 CC50 over Mtb IC90 | selectivity index | 71
Cc1cscc1-c1ccc(OCCc2cc(F)cc(F)c2)c(C(N)=O)c1 | Mycobacterium tuberculosis |  | H37Rv-LP |  | reference: HepG2 CC50 over Mtb IC90 | selectivity index | 18
